{"data": "Experimental data of several laboratories", "note": "Numbered parts are unrelated; each lists some results of a single study."}
{"data": "Study 1", "target": "Fragile X messenger ribonucleoprotein 1, C-terminal low-complexity region (Fmr1, Mus musculus, UniProt P35922)", "method": "RNA Bind-n-Seq", "molecule type": "RNA", "medium": "in vitro", "concentration": "200 nM", "setting": "whole 134-nt RNA, ends assumed", "with": "150 mM KCl", "relative to": "input library", "reading": "higher = stronger binding", "constant ends, left off below": "GGGAGUUCUACAGUCCGACGAUC … UGGAAUUCUCGGGUGUCAAGG"}
{"Oligonucleotide": "GCUGUUGGAGUGGAUCCGCCGCACAAUCCCGUGGCUGGAGAACCGGGUGCCCGAGAACACCAUGCAUGCCAUGCAACAGAAGCUGGAGGA", "log2 enrichment": -2.09}
{"Oligonucleotide": "CUCAAGUCCUGUGCUACACAUCGUAUGUACCGAAUCGGUGGUUUUUGGUUUGGAAAGUAUUAUGUUACGCCGUUCGGAUCUGCACUUCCA", "log2 enrichment": -0.26}
{"Oligonucleotide": "UGGGCUGGAUGGCUCAGUUCCCCCAGACCUGGACUGGAAGGGCCAGCCACCUGCACCUCCUAAAAAGGGACUGCUGCAGAGACUCUUCAG", "log2 enrichment": -0.933}
{"Oligonucleotide": "AAGUCCUGUGCUACACAUCGUAUGUACCGAAUCGGGGUUUUGGUUUUGGGUUUUGGAAAGUAUUAUGUUACGCCGUUCGGAUCUGCACUU", "log2 enrichment": -0.526}
{"Oligonucleotide": "UAACUUUAGAGGAGGAUCUGAUGGAUAUGGCAGUGGACGUGAAUUUGGGGAUGGCUAUAAUGGGUAUGGAGGAGGACCUGGAGGUGGCAA", "log2 enrichment": 0.305}
{"Oligonucleotide": "UGAGAAACUUGCUCAAAUAUUGGCAGCUAGACAGUUAGAAAUUAAACAGAUUCCAUCUGAUGGCCACUGUAUGUAUAAAGCCAUUGAAGA", "log2 enrichment": -0.888}
{"Oligonucleotide": "UGUGCUACACAUCGUAUGUACCGAAUCGGGUUUUUUUGGGGUUUUUUUGGGGUUUUUUUGGGAAAGUAUUAUGUUACGCCGUUCGGAUCU", "log2 enrichment": 0.107}
{"Oligonucleotide": "GCAGGAAGUAAAAACAAAUGGAAAUGCUUCGGAUAGUGGCAGGGGUGGGGGUUGCUAAGGAAAGGGUGGGAUGGGAGUGGGUAAAGUGUU", "log2 enrichment": 0.211}
{"Oligonucleotide": "GCAGGAAGUGAAAACAAAUGGAAAUGCUUCGGAUAGUGGCAGGGGUGGGGGUUGCUAAGGAAAGGGUGGGAUGGGAGUGGGUAAAGAGUU", "log2 enrichment": 0.178}
{"data": "Study 2", "target": "Histone acetyltransferase KAT6A, winged helix 2, GST fusion (KAT6A, Homo sapiens, UniProt Q92794, residues 85-181)", "method": "protein binding microarray", "molecule type": "double-stranded DNA, one strand shown", "medium": "in vitro", "concentration": "not given", "setting": "8-mer, flanks averaged, mean of 2 arrays, mostly near background", "relative to": "not given", "reading": "higher = stronger binding", "Target sequence (chain)": "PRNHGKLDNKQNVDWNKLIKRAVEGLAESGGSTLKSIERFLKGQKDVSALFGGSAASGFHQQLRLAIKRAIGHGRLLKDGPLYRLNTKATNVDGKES"}
{"Oligonucleotide": "GCCCAGCC", "E-score": 0.222}
{"Oligonucleotide": "ATTTGTTA", "E-score": -0.0341}
{"Oligonucleotide": "AACTCCCT", "E-score": 0.0208}
{"Oligonucleotide": "TCCTGCAA", "E-score": -0.0128}
{"Oligonucleotide": "GTTTACGA", "E-score": -0.0379}
{"Oligonucleotide": "CCGGTATA", "E-score": 0.00953}
{"Oligonucleotide": "CGGATTCA", "E-score": -0.00234}
{"Oligonucleotide": "GCTACGTA", "E-score": -0.114}
{"Oligonucleotide": "AAGTTAGT", "E-score": 0.0517}
{"Oligonucleotide": "TCAGAAGA", "E-score": 0.0434}
{"Oligonucleotide": "GCACAAGA", "E-score": 0.0722}
{"Oligonucleotide": "GAGCTTTA", "E-score": 0.0563}
{"Oligonucleotide": "CATGAGGC", "E-score": 0.129}
{"Oligonucleotide": "AAAAGGTC", "E-score": -0.0765}
{"Oligonucleotide": "CTCCCAGA", "E-score": -0.0823}
{"Oligonucleotide": "GATCCCAC", "E-score": 0.0636}
{"Oligonucleotide": "CAACTGGA", "E-score": -0.0698}
{"Oligonucleotide": "ACACCGTG", "E-score": -0.102}
{"Oligonucleotide": "CTGCCGTC", "E-score": 0.189}
{"Oligonucleotide": "AGCAGCTC", "E-score": -0.0504}
{"Oligonucleotide": "ATAGGCTA", "E-score": -0.161}
{"data": "Study 3", "target": "RNA binding protein fox-1 homolog 2, RRM domain, GST-SBP tag (RBFOX2, Homo sapiens, UniProt O43251-10, residues 100-194)", "method": "RNA Bind-n-Seq", "molecule type": "RNA", "medium": "in vitro", "concentration": "365 nM", "setting": "natural RNA segment, single round, ends assumed", "relative to": "no-protein control", "reading": "higher = stronger binding", "constant ends, left off below": "GGGAGUUCUACAGUCCGACGAUC … UGGAAUUCUCGGGUGCCAA", "Residues (chain)": "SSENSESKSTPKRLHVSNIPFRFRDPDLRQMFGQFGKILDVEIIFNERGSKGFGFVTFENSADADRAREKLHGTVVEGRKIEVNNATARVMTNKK"}
{"Oligonucleotide": "UAAUAAAAUGCUAACCUGCCCAGGGUUCCUAUUACUGUGGGAGGGGUCCCCUGGGCCAGCCAGCGAUUCUACUCCCUCAACGUGUAUCUCUCCUUCCCUCCCACCACCAC", "RBNS enrichment (R)": 0.564}
{"Oligonucleotide": "UCAGAUUGCAUGGGGGAUUUUUAACAUAUUUGAAACUCAGGGGGAACAUGAUUAAGAACACAAACUGGUAGCUACACAUGAAGGUUUACUUGAGCUUUUGUGAUUCAAAG", "RBNS enrichment (R)": 17.3}
{"Oligonucleotide": "UCCUUGUGAACUGUGCAGAAGGAGUGAUCCCAGCAUCGGCAAGCGAGGGAGAAGACUGCACGAGAGUGAUGCGCAUUUCGAGUCUGCUUUUCGAUAGUUGAUGUCUUCUU", "RBNS enrichment (R)": 0.713}
{"Oligonucleotide": "CUUCACACCAUGGGAUAAAUCUGUAUCAAGACGGUUCUUUUCUAGAUUUCCUCUACCUUUUUGCUCUUAAAACUGCUUCUCUGCUCUGAGAAGCACAGCUACCUGCCUUC", "RBNS enrichment (R)": 0.619}
{"Oligonucleotide": "CUGACUCAGAAGACGCAGCUUACUGCUUCCAACUUUGCACAUCUUCCUCUUUAAAAAACUGAGAAAAUGCAAAAACUGGAACUUUUUGCAAUAUUAUAAAAGAAGUAAUC", "RBNS enrichment (R)": 0.35}
{"Oligonucleotide": "GUACCCAGAUGCCUACAACCAUCCCUGCCACAUACAGGUGCUCAAUAAACACUUGUAGAGCAGAUGGACGAGCUCGCUGUGCUGGUAACAGAUGGUGGUCUGUUCUCAGG", "RBNS enrichment (R)": 0.365}
{"Oligonucleotide": "AUGAAGAAGUAGAAAGUGAGUCAUGCACUAGACAGUGGGCCUAGCUCAUCAGUGGCUAAAGUUGAAAAGGGGUUGGUUUCCUGUAUAUAUAUGUAUGUAUAUACACACGU", "RBNS enrichment (R)": 0.885}
{"Oligonucleotide": "AGGAACAGGCCUCAGGAAUAUUUCUCCCUGGCCAGCCCUGCACUAGCUGGGGCAGGGGCAGAGGACAGCGGCUGUAGCUGUCACAUCUCUGCGACUCAUCCUGUACCGUG", "RBNS enrichment (R)": 0.367}
{"data": "Study 4", "target": "Interferon regulatory factor 7, full length, phosphomimetic (IRF7, Homo sapiens, UniProt Q92985, residues 1-503, S101K/S471D/S472D/S475D/S476D/S477D/S483D/S484D/S487D)", "method": "protein-binding microarray", "molecule type": "double-stranded DNA, one strand shown", "medium": "in vitro", "concentration": "250 nM", "setting": "60-bp whole probe", "with": "salmon DNA 0.4 mg/ml", "relative to": "random background probes", "reading": "higher = stronger binding", "constant ends, left off below": "GCCTAGCAC … GTCTTGATTCGCTTGACGCTGCTG", "sequence of UniProt Q92985 (whole entry, unmodified, looked up)": "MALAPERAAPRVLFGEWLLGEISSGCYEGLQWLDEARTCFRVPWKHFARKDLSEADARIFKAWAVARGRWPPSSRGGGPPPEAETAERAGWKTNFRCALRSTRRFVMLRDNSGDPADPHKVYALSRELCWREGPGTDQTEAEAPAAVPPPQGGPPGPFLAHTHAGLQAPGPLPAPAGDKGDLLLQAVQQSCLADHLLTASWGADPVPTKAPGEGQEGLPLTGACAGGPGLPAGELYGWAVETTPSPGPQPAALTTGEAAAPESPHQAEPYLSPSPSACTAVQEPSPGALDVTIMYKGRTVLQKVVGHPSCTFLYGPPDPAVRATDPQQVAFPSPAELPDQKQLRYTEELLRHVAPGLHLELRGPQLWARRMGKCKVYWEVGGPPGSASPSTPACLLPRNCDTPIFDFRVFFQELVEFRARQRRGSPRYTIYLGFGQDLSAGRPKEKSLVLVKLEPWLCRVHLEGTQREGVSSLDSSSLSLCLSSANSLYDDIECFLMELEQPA"}
{"Oligonucleotide": "GTCAAACTCACTCATGGCTTTGTGCTA", "log fluorescence [z-score]": 0.498}
{"Oligonucleotide": "GGCGGTCTCCTTCTCCTGACGTGCTAG", "log fluorescence [z-score]": -0.527}
{"Oligonucleotide": "TTAGGTTTCGGTCTCGGTTAGTGCTAG", "log fluorescence [z-score]": 8.67}
{"Oligonucleotide": "GACGGTTTCAGGTTTCGGGACGTGCTA", "log fluorescence [z-score]": 5.56}
{"Oligonucleotide": "TTAGGTTTCGGTTATCGGTTAGTGCTA", "log fluorescence [z-score]": 10.9}
{"Oligonucleotide": "TTAGAACTGAGATTCGATTAGTGCTAG", "log fluorescence [z-score]": 1.66}
{"Oligonucleotide": "GTAGGTATCGACTATCGGTTAGTGCTA", "log fluorescence [z-score]": -0.144}
{"Oligonucleotide": "TTAGGACTGCTTTTCCTTGAGTGCTAG", "log fluorescence [z-score]": 0.706}
{"Oligonucleotide": "TTAGTTCTCAGACTGGATTAGTGCTAG", "log fluorescence [z-score]": 0.594}
{"Oligonucleotide": "GACGGTTCCGGACTGGGGACGTGCTAG", "log fluorescence [z-score]": 0.22}
{"Oligonucleotide": "ACTTTTTTCTGATTGAATCTGTGCTAG", "log fluorescence [z-score]": 3.34}
{"Oligonucleotide": "TTAGAACTGGGGTTTCGATTGGTGCTA", "log fluorescence [z-score]": 7.34}
{"Oligonucleotide": "TTAGGTATCGGTGTCGGTTAGTGCTAG", "log fluorescence [z-score]": 0.223}
{"Oligonucleotide": "TTAGTTTCCCTTTTCCTTTAGTGCTAG", "log fluorescence [z-score]": 9.21}
{"Oligonucleotide": "TTAGATCTCAGACTGGAATAGTGCTAG", "log fluorescence [z-score]": 0.26}
{"Oligonucleotide": "AGGAGAGATTAAGTAACTTAGTGCTAG", "log fluorescence [z-score]": -0.619}
{"Oligonucleotide": "GATGTTTTAGGTCCCTTTTCGTGCTAG", "log fluorescence [z-score]": 1.76}
{"Oligonucleotide": "AACGGTCTCCTTATCCTGACGTGCTAG", "log fluorescence [z-score]": 0.464}
{"Oligonucleotide": "GACGGTATCGGGTTTTGGGACGTGCTA", "log fluorescence [z-score]": 0.888}
